Values quoted from earlier work as cited in several papers.
Each numbered part shows a few of the values that one paper quotes. pIC50, pKd, pKi: −log10 of the molar value.

Series 1
SMILES: CCCCCCCCNC(C)C(O)c1ccc(SC(C)C)cc1 (stereo not drawn)
Cell line: MCF7
Technique: microarray
Concentration: concentration not given
The fold change was 2.23 (refers to: ISG20 mRNA (probe 33304_at); reference: vehicle (DMSO)).
refers to: SYNGR3 mRNA; reference: DMSO — fold change: 1.94.
refers to: MAFF mRNA (probe 36711_at); reference: vehicle (DMSO) — fold change: 14.

Series 2
Target: dopamine transporter
For `CC(C)(C(=O)O)c1ccc(C(O)CCCN2CCC(C(O)(c3ccccc3)c3ccccc3)CC2)cc1` (stereo not drawn), the pIC50 was less than 5.00.
`N[C@@H](Cc1ccc(O)c(O)c1)C(=O)O` gave a pIC50 of less than 5.00.
With `NNC(=O)c1ccncc1` the pIC50 was less than 5.00.

Series 3
Organism: Cryptosporidium parvum
Observed: parasite growth
Technique: high-throughput screen
Concentration: concentration not given
Under antiparasitic activity, `O=c1cnn([C@@H]2O[C@H](CO)[C@@H](O)[C@H]2O)c(=O)[nH]1` is recorded as “active”.
`Oc1c(Cl)cc(Cl)c2cccnc12` — result for antiparasitic activity: “active”.
Under antiparasitic activity, `C[C@H]1c2cccc(O)c2C(=O)C2=C(O)[C@]3(O)C(=O)C(C(N)=O)=C(O)[C@@H](N(C)C)[C@@H]3[C@@H](O)[C@@H]21` is recorded as “active”.
`CC(=O)O[C@@]12CO[C@@H]1C[C@H](O)[C@@]1(C)C(=O)[C@H](O)C3=C(C)[C@@H](OC(=O)[C@H](O)[C@@H](NC(=O)OC(C)(C)C)c4ccccc4)C[C@@](O)([C@@H](OC(=O)c4ccccc4)[C@H]21)C3(C)C`: antiparasitic activity “active”.
Under antiparasitic activity, `COC(=O)C[C@](O)(CCCC(C)(C)O)C(=O)O[C@@H]1C(OC)=C[C@]23CCCN2CCc2cc4c(cc2[C@H]13)OCO4` is recorded as “active”.
`CC[C@H](C)C(=O)O[C@H]1CCC=C2C=C[C@H](C)[C@H](CC[C@@H]3C[C@@H](O)CC(=O)O3)[C@H]21` — result for antiparasitic activity: “active”.
`[H]/N=C(/NCCCCC)N/N=C/c1c[nH]c2ccc(OC)cc12`: antiparasitic activity “active”.
Under antiparasitic activity, `CN(C)c1ccc(O)c2c1C[C@H]1C[C@H]3[C@H](N(C)C)C(O)=C(C(N)=O)C(=O)[C@@]3(O)C(O)=C1C2=O` is recorded as “active”.
`Oc1c(Cl)cc(Cl)c(Cl)c1Cc1c(O)c(Cl)cc(Cl)c1Cl`: antiparasitic activity “active”.
`Cc1cnc(C(=O)NCCc2ccc(S(=O)(=O)NC(=O)NC3CCCCC3)cc2)cn1` — result for antiparasitic activity: “active”.
`COc1ccc2c(c1)c(CC(=O)O)c(C)n2C(=O)c1ccc(Cl)cc1`: antiparasitic activity “active”.
Under antiparasitic activity, `C[C@H]1O[C@@H](O[C@H]2[C@@H](O)C[C@H](O[C@H]3[C@@H](O)C[C@H](O[C@H]4CC[C@@]5(C)[C@H](CC[C@@H]6[C@@H]5C[C@@H](O)[C@]5(C)[C@@H](C7=CC(=O)OC7)CC[C@]65O)C4)O[C@@H]3C)O[C@@H]2C)C[C@H](O)[C@@H]1O` is recorded as “active”.

Further values, each from its own experiment
For `c1ccc(N2CCN(Cc3nc4ccccc4[nH]3)CC2)nc1`, the pKi was 5.56 (5-HT1A receptor; Cerep binding).
`Nc1ccn([C@@H]2O[C@H](COP(=O)(O)OP(=O)(O)O)[C@@H](O)[C@H]2O)c(=O)n1` gave a pKd of 5.52 to 6.00 (ribonuclease A; binding, ESI mass spectrometry).
For `COc1cc2c(cc1OC)C(c1c[nH]c3ncccc13)NCC2` (stereo not drawn), the pIC50 was less than 4.00 (MRC-5 fibroblasts; cytotoxicity).
Under “terminal elimination half-life”, `Cc1cccc(C)c1OCC(=O)N[C@@H](Cc1ccccc1)[C@@H](O)C[C@H](Cc1ccccc1)NC(=O)[C@H](C(C)C)N1CCCNC1=O` is recorded as 2.33 to 2.44 h (depends on dosing frequency).
With `c1ccc2c(c1)CCNC2c1c[nH]c2ccccc12` (stereo not drawn) the pIC50 was less than 4.00 (MRC-5 fibroblasts; cytotoxicity).
The pKd of `C[C@@]1(Cc2ccc(C#N)cc2)C(=O)N(c2cc(Cl)cc(Cl)c2)c2ncc(C(=O)NC3(c4nc(C5CCC5)no4)CC3)n21` is reported as less than 6.00 (ITGAL; biochemical).
